Measurements from different studies.
Every numbered part comes from another study and shows a few of its results, in no order. Positions count from the first letter of the parent shown.
Sequence of UniProt P28335 (whole entry, looked up): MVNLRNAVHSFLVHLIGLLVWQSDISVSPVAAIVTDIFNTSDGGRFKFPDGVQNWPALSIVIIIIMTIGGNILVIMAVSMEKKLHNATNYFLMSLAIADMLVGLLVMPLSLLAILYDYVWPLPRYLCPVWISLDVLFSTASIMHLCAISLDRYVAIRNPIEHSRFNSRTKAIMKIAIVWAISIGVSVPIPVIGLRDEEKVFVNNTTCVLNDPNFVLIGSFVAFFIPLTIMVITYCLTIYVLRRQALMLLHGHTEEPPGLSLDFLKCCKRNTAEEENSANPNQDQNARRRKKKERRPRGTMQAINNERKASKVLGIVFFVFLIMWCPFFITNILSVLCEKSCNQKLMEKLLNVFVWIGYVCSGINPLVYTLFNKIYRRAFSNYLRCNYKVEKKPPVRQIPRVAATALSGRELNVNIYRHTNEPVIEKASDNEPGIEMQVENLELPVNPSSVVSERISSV

Study 1 — target: vanadate, free oxyanion; technique: microfluidic competitive inhibition; sample: in vitro, cell-free expressed; concentration: not given; direction: lower = stronger binding; endpoint: oxyanion analog dissociation constant
Notes: derived from inhibition constants, unchanged parent 676 nM
Starting sequence: PafA, mature enzyme, eGFP fusion (Elizabethkingia meningoseptica, UniProt Q9KJX5); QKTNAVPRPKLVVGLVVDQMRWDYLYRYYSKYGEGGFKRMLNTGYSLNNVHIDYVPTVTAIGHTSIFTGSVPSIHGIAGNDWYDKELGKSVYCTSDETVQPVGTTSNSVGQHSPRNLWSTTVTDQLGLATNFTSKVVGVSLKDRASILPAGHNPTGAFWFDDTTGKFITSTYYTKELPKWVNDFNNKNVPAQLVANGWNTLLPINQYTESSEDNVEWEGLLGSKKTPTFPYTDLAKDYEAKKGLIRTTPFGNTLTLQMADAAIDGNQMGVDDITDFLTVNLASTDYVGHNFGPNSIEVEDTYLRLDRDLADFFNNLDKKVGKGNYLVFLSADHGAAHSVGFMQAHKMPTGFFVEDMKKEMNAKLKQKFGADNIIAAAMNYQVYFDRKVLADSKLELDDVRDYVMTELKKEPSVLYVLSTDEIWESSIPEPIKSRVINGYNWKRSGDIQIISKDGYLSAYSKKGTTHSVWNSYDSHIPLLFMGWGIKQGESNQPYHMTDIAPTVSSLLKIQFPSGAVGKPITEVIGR
Y494G: 781 nM
T57G: 374 nM
W441V: 810 nM
V503A: 576 nM
N205G: 794 nM
S90V: 1.33 µM
E424G: 650 nM
N324G: 878 nM

Study 2 — target: CCNE2, cyclin fold, Cln2 fusion (human); technique: yeast growth competition, sequencing; sample: yeast; notes: strong parent motif; relative to: not given; direction: higher = stronger binding; endpoint: normalised enrichment score; starting sequence: viral docking peptide; KGVKRKLFAEDSS
KGVKDKLFAEDSS [R5D]: 0.105
KGVGRKLFAEDSS [K4G]: 0.69
KWVKRKLFAEDSS [G2W]: 4.39
KGVSRKLFAEDSS [K4S]: 4.47
KGVKRKLFAEDES [S12E]: 6.7
KGVKTKLFAEDSS [R5T]: 0.304
KGWKRKLFAEDSS [V3W]: 3.06
KGVKRPLFAEDSS [K6P]: 0.594

Study 3 — read-out: binding; technique: phage display NGS; molecule type: peptide; relative to: input library; endpoint: minimum log2 enrichment ratio
Target: UDP-N-acetylglucosamine--peptide N-acetylglucosaminyltransferase 110 kDa subunit (OGT, Homo sapiens, UniProt O15294)
Sequence of UniProt O15294 (whole entry, looked up): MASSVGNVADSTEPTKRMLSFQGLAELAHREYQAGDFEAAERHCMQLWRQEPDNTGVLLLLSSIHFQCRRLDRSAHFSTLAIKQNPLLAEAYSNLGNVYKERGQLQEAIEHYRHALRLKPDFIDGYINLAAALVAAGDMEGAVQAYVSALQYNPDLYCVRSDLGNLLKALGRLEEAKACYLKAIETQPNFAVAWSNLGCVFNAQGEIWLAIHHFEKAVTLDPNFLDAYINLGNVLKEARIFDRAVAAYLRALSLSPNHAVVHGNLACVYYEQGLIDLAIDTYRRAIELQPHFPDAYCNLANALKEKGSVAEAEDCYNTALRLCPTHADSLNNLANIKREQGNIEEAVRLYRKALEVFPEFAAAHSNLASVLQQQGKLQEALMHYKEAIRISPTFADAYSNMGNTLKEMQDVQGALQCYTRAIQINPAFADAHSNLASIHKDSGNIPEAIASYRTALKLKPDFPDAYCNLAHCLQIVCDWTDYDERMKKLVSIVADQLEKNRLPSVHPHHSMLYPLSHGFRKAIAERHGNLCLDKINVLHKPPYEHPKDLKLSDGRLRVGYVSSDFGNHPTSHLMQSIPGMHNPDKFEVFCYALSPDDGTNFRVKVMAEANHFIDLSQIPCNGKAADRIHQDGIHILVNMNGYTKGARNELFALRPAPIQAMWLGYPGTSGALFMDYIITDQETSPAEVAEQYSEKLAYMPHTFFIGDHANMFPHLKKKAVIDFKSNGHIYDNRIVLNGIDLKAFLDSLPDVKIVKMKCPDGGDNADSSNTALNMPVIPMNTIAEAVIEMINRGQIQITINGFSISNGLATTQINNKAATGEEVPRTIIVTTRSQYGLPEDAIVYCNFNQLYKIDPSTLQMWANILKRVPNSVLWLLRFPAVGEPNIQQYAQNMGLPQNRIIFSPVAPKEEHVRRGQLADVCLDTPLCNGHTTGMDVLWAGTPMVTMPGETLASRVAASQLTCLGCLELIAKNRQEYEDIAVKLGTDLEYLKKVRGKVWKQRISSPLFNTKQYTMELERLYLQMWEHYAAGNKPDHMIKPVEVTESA
VRFPPQYQMVYKTTV: 4.87
HIGRHTGPHYYNIVH: 1.93
HGIMQEDHGGTHHHY: 1.62
GADYLPKYQVVYNVR: 2.97
TFEHWYWTDTTYKHH: 2.4
FPYLPQYQISPDYFS: 2.23
HQFDGHSNLHIHSIE: 1.8
QQQYRDYNPKYIIHY: 3.19

Single results of other studies
COc1ccc2c(c1)O[C@H](c1ccc(OC)c(OC)c1)C[C@@H]2NC(=O)C1(c2ccc3c(c2)OC(F)(F)O3)CC1
inhibition (5-hydroxytryptamine receptor 2C (HTR2C, Homo sapiens, UniProt P28335); ligand displacement; 10 µM): -2.28%

A few entries again (study 3):
TFEHWYWTDTTYKHH: 2.4
FPYLPQYQISPDYFS: 2.23
HQFDGHSNLHIHSIE: 1.8
QQQYRDYNPKYIIHY: 3.19
